# Assay results of several laboratories.
# Every numbered part comes from another study and shows a few of its results, in no order.
# Sequence of UniProt P10721 (whole entry, unmodified, looked up): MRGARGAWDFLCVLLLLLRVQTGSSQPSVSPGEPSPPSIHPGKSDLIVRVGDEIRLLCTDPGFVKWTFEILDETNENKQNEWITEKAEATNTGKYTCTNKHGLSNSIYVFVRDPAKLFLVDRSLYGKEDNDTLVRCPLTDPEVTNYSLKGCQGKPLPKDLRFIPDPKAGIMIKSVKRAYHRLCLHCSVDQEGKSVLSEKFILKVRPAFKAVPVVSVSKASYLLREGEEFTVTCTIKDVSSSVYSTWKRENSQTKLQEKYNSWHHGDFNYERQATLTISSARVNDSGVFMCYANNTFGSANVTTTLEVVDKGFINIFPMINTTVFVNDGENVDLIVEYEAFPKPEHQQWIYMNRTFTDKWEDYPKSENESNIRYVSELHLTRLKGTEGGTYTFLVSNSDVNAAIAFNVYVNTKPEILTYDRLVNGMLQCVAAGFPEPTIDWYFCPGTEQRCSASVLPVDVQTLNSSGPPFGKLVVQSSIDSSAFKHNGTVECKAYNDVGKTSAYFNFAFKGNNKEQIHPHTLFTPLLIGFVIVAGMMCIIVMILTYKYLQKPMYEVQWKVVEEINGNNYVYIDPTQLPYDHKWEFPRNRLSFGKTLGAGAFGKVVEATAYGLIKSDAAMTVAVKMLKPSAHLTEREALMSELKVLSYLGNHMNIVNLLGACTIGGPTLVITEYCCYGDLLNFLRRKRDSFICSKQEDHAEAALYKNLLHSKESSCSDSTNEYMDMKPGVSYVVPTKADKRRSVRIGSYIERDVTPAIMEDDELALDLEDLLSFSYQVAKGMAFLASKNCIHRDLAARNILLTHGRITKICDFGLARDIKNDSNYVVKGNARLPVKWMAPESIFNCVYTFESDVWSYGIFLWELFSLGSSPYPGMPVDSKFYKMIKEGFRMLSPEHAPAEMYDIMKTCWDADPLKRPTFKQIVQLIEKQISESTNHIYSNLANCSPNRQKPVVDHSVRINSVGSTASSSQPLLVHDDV
# Sequence of UniProt Q9HAZ1 (whole entry, looked up): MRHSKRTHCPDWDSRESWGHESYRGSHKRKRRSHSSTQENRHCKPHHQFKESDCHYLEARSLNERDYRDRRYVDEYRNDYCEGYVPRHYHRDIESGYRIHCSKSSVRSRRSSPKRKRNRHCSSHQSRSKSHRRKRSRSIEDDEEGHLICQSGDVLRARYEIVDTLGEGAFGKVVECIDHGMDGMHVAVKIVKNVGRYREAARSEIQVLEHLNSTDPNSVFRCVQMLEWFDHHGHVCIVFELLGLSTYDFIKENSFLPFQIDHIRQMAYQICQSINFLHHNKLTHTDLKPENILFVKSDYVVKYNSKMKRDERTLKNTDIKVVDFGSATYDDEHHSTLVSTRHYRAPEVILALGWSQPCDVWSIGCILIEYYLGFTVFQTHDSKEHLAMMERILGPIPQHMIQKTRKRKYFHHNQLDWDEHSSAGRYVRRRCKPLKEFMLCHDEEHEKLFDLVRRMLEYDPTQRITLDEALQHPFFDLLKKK
# Sequence of UniProt P50750 (whole entry, looked up): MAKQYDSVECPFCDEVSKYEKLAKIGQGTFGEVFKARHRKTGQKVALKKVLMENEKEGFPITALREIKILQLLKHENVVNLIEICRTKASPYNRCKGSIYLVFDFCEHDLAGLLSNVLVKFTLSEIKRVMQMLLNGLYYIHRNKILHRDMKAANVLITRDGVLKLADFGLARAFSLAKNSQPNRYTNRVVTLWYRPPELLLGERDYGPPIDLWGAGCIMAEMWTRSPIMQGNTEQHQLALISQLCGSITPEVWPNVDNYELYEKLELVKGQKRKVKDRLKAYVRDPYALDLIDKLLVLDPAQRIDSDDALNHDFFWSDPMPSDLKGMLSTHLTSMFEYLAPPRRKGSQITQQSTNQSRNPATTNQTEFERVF
# Sequence of UniProt P32298 (whole entry, looked up): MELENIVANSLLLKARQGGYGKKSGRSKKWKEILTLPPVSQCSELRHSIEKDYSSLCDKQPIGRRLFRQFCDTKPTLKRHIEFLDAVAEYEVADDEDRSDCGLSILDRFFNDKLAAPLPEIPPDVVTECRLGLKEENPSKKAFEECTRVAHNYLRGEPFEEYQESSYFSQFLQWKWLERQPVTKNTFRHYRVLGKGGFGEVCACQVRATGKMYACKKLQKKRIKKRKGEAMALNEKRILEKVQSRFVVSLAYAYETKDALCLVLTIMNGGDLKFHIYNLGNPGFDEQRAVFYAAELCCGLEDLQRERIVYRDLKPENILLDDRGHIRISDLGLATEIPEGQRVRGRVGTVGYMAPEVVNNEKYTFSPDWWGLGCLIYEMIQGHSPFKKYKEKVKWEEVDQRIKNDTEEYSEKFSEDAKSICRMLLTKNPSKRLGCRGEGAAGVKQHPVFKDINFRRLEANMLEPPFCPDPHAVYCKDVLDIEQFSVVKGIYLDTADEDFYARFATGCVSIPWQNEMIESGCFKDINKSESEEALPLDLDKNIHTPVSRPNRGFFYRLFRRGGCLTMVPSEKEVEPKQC
# Sequence of UniProt P42681 (whole entry, looked up): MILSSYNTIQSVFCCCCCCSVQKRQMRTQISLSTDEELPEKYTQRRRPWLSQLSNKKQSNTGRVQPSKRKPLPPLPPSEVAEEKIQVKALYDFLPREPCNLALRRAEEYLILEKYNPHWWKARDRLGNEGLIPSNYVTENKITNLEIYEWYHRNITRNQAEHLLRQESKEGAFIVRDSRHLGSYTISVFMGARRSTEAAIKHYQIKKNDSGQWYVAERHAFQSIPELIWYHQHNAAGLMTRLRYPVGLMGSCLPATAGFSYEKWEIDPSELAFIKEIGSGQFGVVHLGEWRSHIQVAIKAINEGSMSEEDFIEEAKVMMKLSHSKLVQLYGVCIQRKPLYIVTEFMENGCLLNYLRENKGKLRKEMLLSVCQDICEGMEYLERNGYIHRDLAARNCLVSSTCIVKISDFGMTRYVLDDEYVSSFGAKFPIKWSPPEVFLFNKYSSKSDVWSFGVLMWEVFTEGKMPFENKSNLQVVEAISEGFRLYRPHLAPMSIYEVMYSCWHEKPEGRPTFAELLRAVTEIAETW
# Sequence of UniProt Q15349 (whole entry, looked up): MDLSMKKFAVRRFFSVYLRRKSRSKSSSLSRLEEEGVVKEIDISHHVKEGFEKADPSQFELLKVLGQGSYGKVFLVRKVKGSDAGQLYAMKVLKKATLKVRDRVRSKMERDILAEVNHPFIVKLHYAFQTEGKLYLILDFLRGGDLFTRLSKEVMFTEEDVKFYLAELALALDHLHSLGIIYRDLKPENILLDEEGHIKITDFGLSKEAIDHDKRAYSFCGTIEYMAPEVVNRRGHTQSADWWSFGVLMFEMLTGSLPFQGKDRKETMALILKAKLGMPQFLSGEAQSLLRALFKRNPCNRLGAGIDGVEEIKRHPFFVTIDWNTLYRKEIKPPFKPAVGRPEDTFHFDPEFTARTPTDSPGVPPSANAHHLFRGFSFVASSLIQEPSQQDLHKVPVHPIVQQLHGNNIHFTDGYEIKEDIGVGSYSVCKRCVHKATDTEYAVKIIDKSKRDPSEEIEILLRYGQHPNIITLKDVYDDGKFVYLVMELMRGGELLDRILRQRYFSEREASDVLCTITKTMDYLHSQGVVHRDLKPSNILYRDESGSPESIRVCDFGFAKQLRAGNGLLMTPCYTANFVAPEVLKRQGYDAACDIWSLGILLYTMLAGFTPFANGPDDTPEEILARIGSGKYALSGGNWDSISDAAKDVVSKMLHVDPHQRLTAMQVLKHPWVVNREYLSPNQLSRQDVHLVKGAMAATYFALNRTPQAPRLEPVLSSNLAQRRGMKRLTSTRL
# Sequence of UniProt Q86UE8 (whole entry, looked up): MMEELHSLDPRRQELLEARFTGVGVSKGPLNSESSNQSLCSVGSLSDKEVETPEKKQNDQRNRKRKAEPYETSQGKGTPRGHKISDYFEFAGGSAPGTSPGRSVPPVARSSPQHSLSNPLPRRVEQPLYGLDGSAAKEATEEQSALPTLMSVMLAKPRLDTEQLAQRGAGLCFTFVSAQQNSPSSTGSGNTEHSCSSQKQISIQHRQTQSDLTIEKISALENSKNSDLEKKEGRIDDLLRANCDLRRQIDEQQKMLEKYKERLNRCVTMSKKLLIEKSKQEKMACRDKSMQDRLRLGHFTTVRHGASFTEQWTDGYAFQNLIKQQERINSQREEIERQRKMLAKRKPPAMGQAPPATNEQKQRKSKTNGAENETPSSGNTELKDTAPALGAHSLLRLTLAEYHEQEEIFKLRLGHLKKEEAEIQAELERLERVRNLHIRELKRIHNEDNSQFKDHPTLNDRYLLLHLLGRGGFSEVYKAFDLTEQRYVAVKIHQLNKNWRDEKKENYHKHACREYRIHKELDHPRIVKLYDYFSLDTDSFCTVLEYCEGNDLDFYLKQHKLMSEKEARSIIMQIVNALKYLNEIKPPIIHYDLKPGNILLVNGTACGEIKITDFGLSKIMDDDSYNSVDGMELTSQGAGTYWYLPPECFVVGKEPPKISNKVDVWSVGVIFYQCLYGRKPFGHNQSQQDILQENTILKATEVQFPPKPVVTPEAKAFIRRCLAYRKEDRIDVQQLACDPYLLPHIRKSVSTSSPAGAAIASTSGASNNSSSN
# Sequence of UniProt O75914 (whole entry, looked up): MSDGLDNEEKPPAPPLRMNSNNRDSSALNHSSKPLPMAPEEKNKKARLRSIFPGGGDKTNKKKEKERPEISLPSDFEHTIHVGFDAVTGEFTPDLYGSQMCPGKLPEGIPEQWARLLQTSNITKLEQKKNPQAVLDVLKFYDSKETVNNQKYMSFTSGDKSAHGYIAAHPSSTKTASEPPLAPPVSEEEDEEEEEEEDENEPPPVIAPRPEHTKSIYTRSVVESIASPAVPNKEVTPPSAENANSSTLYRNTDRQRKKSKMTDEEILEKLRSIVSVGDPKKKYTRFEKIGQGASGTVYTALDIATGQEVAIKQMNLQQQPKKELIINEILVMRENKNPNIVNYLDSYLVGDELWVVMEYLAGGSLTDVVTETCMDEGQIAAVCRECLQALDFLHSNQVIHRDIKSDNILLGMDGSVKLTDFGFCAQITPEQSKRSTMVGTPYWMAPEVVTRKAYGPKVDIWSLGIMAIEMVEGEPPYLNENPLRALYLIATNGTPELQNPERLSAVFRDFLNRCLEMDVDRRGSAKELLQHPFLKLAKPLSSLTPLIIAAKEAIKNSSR

# Study 1 — matrix: plasma; route: oral
# Structure (SMILES): COc1ccc(-c2c(Nc3ccccn3)[nH]c3c(C4=CCCCC4)c(-c4ccccc4)nn3c2=O)cc1
technique,species,dose,time,setting,"plasma concentration, mean [ng/mL]"
,cancer patients,50 mg,1 h post-dose,single dose,162
,cancer patients,50 mg,3 h post-dose,single dose,447
,cancer patients,100 mg,6 h post-dose,single dose,985
,human patients,400 mg once daily,6 h,cycle 1,3870
,cancer patients,200 mg,1 h post-dose,single dose,406
,human patients,400 mg once daily,3 h,cycle 1,4340
LC-MS/MS,human,200 mg twice daily,3 h,,12400
,cancer patients,100 mg,1 h post-dose,single dose,284

# Study 2 — effect on: cell-free assay; technique: competition with immobilised ligand; tested at: 1 µM
# SMILES: CCOCCn1cc(C(=O)Nc2ccc(-n3nc(-c4cccnc4)cc3C(F)(F)F)cn2)ccc1=O
target,remaining binding [%]
"Serine/threonine-protein kinase Nek11 (NEK11, Homo sapiens, UniProt Q8NG66)",96
"Ribosomal protein S6 kinase alpha-2, C-terminal kinase domain (RPS6KA2, Homo sapiens, UniProt Q15349)",89
"Mast/stem cell growth factor receptor Kit (KIT, Homo sapiens, UniProt P10721, T670I/V559D)",100
"Phosphatidylinositol 4,5-bisphosphate 3-kinase catalytic subunit alpha isoform (PIK3CA, Homo sapiens, UniProt P42336, H1047Y)",100
"Mast/stem cell growth factor receptor Kit (KIT, Homo sapiens, UniProt P10721, D816V)",92
"Mitogen-activated protein kinase kinase kinase 14 (MAP3K14, Homo sapiens, UniProt Q99558)",69
"Ephrin type-B receptor 1 (EPHB1, Homo sapiens, UniProt P54762)",100
"Tyrosine-protein kinase ABL1, phosphorylated (ABL1, Homo sapiens, UniProt P00519, M351T)",100
"1-phosphatidylinositol 3-phosphate 5-kinase (PIKFYVE, Homo sapiens, UniProt Q9Y2I7)",97

# Study 3 — cell line: A-375; tested at: 100 µM; time: 18 h
SMILES,viability [%]
O=C(OC[C@H]1O[C@@H](OC(=O)c2cc(O)c(O)c(OC(=O)c3cc(O)c(O)c(O)c3)c2)[C@H](OC(=O)c2cc(O)c(O)c(OC(=O)c3cc(O)c(O)c(O)c3)c2)[C@@H](OC(=O)c2cc(O)c(O)c(OC(=O)c3cc(O)c(O)c(O)c3)c2)[C@@H]1OC(=O)c1cc(O)c(O)c(OC(=O)c2cc(O)c(O)c(O)c2)c1)c1cc(O)c(O)c(OC(=O)c2cc(O)c(O)c(O)c2)c1,81.2
CC1(C)S[C@@H]2[C@H](NC(=O)[C@H](N)c3ccccc3)C(=O)N2[C@H]1C(=O)OCOC(=O)[C@@H]1N2C(=O)C[C@H]2S(=O)(=O)C1(C)C,96.4
Cc1cccn2c(=O)c(-c3nnn[nH]3)cnc12,97.7
CC(=O)NCCCS(=O)(=O)O,93.5
Cc1nc(Nc2ccc(F)cc2)nc(N2CCc3ccccc3C2C)c1C (stereo not drawn),15.6
COc1ccc2cc3[n+](cc2c1OC)CCc1cc2c(cc1-3)OCO2,68.5
CC(=O)OCC(CCn1cnc2cnc(N)nc21)COC(C)=O,100
CCCCOc1ccc(OCCCN2CCOCC2)cc1,48.3

# Study 4 — effect on: enzyme activity; mode: inhibitor; tested at: 0.5 µM; reference: control
# Structure (SMILES): N#CC(c1ccnc(NCCc2cccnc2)n1)c1nc2ccccc2s1 (stereo not drawn)
target,remaining activity [%]
"Ribosomal protein S6 kinase alpha-4 (RPS6KA4, Homo sapiens, UniProt O75676)",107
"Serine/threonine-protein kinase PAK 3 (PAK3, Homo sapiens, UniProt O75914)",102
"Myosin-IIIb (MYO3B, Homo sapiens, UniProt Q8WXR4)",96.1
"G protein-coupled receptor kinase 4 (GRK4, Homo sapiens, UniProt P32298)",103
"Discoidin domain-containing receptor 2 (DDR2, Homo sapiens, UniProt Q16832)",94.5
"Cyclin-dependent kinase 9, with cyclin K (CDK9, Homo sapiens, UniProt P50750)",26.6
"Misshapen-like kinase 1 (MINK1, Homo sapiens, UniProt Q8N4C8)",93.3
"RAC-beta serine/threonine-protein kinase (AKT2, Homo sapiens, UniProt P31751)",104
"Tyrosine-protein kinase TXK (TXK, Homo sapiens, UniProt P42681)",49.3
"Serine/threonine-protein kinase MARK2 (MARK2, Homo sapiens, UniProt Q7KZI7)",97.9
"Serine/threonine-protein kinase Nek3 (NEK3, Homo sapiens, UniProt P51956)",87.9
"Serine/threonine-protein kinase tousled-like 2 (TLK2, Homo sapiens, UniProt Q86UE8)",102
"Rho-associated protein kinase 1 (ROCK1, Homo sapiens, UniProt Q13464)",93.2
"Dual specificity protein kinase CLK4 (CLK4, Homo sapiens, UniProt Q9HAZ1)",43.8

# Excerpt of the above (study 4):
target,remaining activity [%]
"Ribosomal protein S6 kinase alpha-4 (RPS6KA4, Homo sapiens, UniProt O75676)",107
"Rho-associated protein kinase 1 (ROCK1, Homo sapiens, UniProt Q13464)",93.2
